{"data": "Measured values collected from several papers", "ALB": "Albumin (ALB, Bos taurus, UniProt P02769)", "SLCO2B1": "Solute carrier organic anion transporter family member 2B1 (SLCO2B1, Homo sapiens, UniProt O94956)", "note": "Each line is one published result; not all experiments were run side by side. “And” joins repeats or separate records; there may be more than shown. ± gives the spread as reported.", "UniProt P02769, sequence (whole entry, looked up)": "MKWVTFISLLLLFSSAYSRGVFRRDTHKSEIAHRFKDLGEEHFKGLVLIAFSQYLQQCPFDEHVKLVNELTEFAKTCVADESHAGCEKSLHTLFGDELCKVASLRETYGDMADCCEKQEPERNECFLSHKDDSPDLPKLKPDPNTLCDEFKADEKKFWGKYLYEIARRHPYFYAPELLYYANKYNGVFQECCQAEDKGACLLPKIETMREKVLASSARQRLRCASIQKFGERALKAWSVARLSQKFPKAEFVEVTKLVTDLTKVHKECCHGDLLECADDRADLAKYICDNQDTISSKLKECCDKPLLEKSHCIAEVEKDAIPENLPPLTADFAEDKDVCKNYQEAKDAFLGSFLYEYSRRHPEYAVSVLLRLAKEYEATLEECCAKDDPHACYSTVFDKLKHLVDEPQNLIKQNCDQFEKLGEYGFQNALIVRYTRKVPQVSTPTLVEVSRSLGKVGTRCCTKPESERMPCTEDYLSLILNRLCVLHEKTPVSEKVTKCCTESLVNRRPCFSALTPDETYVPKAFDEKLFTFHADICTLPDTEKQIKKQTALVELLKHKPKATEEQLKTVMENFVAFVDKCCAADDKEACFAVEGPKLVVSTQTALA", "UniProt P05177, sequence (whole entry, looked up)": "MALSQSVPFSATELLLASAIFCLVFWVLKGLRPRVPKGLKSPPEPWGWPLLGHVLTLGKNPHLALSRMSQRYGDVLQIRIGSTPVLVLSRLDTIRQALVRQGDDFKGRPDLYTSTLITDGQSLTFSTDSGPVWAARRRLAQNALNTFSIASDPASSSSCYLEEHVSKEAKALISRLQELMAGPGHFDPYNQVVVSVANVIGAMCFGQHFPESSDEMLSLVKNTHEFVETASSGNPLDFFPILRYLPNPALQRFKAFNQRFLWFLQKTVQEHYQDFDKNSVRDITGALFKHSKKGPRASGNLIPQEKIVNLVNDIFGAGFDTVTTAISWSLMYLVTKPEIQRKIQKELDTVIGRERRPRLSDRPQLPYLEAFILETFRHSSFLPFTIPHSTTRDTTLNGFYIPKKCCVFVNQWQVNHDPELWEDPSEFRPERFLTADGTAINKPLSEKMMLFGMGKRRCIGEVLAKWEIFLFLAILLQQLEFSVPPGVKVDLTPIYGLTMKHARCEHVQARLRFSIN", "UniProt O94956, sequence (whole entry, looked up)": "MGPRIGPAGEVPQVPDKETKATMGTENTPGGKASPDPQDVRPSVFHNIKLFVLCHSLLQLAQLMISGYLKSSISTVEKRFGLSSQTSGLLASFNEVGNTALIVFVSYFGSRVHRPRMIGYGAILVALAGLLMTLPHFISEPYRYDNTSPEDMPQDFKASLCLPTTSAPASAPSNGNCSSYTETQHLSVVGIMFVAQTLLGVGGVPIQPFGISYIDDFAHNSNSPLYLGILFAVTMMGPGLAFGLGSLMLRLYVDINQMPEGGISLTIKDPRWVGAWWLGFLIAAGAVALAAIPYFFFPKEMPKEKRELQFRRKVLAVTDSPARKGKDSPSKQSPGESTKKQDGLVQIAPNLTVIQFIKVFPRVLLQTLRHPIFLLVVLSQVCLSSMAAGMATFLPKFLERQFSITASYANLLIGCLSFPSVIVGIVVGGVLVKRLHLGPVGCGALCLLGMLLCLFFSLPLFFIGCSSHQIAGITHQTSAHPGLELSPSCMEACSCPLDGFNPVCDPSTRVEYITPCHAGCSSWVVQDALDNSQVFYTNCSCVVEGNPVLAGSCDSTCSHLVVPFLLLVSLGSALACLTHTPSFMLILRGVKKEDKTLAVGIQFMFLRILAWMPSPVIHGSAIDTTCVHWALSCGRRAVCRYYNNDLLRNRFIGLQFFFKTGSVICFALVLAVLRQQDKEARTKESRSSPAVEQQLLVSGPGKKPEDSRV"}
{"SMILES": "CN1CCN(c2ccc3[nH]c(-c4ccc5[nH]c(-c6ccc(OCCCCNC(=O)c7ccc8c(c7)C(=O)OC87c8ccc(N(C)C)cc8[Si](C)(C)c8cc(N(C)C)ccc87)cc6)nc5c4)nc3c2)CC1", "tested on": "ALB", "assay": "binding, fluorescence titration", "system": "PBS", "setting": "1 h", "measurement": "Kd", "value": "299 ± 77 µM"}
{"SMILES": "COC1CN([C@H]2CC[C@H]([C@@]3(C)Oc4c(Cl)cc(C(=O)NCc5c(SC)cc(C)[nH]c5=O)c(C)c4O3)CC2)C1", "assay": "RNA-seq, measured: mouse COMMD3-BMI1 homolog", "system": "mouse, HT-1376 xenograft, whole blood", "setting": "dose not given, PRC2 target gene", "scale": "relative to: vehicle", "measurement": "log2 fold change", "value": 0.986}
{"SMILES": "OC(Cc1cc(-c2ccc(C(O)C(F)(F)F)s2)sc1-c1ccc(-c2sc(-c3ccc(C(O)C(F)(F)F)s3)cc2CC(O)C(F)(F)F)s1)C(F)(F)F (stereo not drawn)", "tested on": "primary human fetal neurons", "assay": "LC-MS/MS", "setting": "4 µM, 60 min, replicate 3", "measurement": "amount in extracellular wash", "value": "0.02 nmol and 0.01 nmol"}
{"SMILES": "O=C(Nc1cc(-c2ccnc3[nH]ccc23)c(Cl)cn1)[C@H]1CCC[C@@H](NC(=O)C(F)(F)F)C1", "tested on": "P-glycoprotein (MDR1)", "system": "MDCK-MDR1 cells", "scale": "relative to: B-A over A-B Papp", "measurement": "efflux ratio", "value": 2.4}
{"SMILES": "CN1CCN(c2ccc3[nH]c(-c4ccc5[nH]c(-c6ccc(OCCCCNC(=O)c7ccc8c(c7)C7(OC8=O)c8ccc(N(C)C)cc8C(C)(C)c8cc(N(C)C)ccc87)cc6)nc5c4)nc3c2)CC1", "tested on": "ALB", "assay": "binding, fluorescence titration", "system": "PBS", "setting": "1 h", "measurement": "Kd", "value": "136 ± 17 µM"}
{"SMILES": "O=C(c1ccc(OCCN2CCCCC2)cc1)c1c(-c2ccc(O[C@@H]3O[C@H](C(=O)O)[C@@H](O)[C@H](O)[C@H]3O)cc2)sc2cc(O)ccc12", "tested on": "SLCO2B1", "system": "HEK293 expressing SLCO2B1", "setting": "pH 7.4", "measurement": "intrinsic clearance", "value": "6.91 µL/min/mg protein"}
{"SMILES": "CN(Cc1ccccc1)C(=O)CN1CCN(CC(=O)[O-])CCN(Cc2cccc(C(=O)[O-])n2)CC1.[44Sc+3]", "system": "mouse, stomach", "setting": "intravenous, 1 h", "measurement": "tracer uptake", "value": "0.5 %ID/g"}
{"SMILES": "Cc1ncc2[nH]c(=O)n(-c3cnc(Oc4cccc5c4C(C)(C)CO5)c(Cl)c3C)c2n1", "tested on": "P-glycoprotein, rat", "measurement": "efflux ratio", "value": 14.2}
{"SMILES": "CC(C)OCCOCc1ccc(OCC(O)CN(N=O)C(C)C)cc1 (stereo not drawn)", "tested on": "Escherichia coli", "assay": "Ames test", "system": "WP2 uvrA", "setting": "5 µg/plate, without metabolic activation", "scale": "relative to: solvent control", "measurement": "revertant fold increase", "value": "0.6 fold"}
{"SMILES": "CNC(=O)C1CCCN(C(=O)C2CC3CCC2N3C(=O)[C@@H]2C[C@@H](O)CN2C(=O)NCc2cccc(Cl)c2F)C1 (mixture of isomers)", "tested on": "Cytochrome P450 1A2 (CYP1A2, Homo sapiens, UniProt P05177)", "assay": "preincubation with NADPH", "system": "human", "setting": "0.206 µM", "scale": "relative to: negative control", "measurement": "remaining activity", "value": "114% and 104% and 95.1%"}
{"SMILES": "CN1CCN(c2ccc3[nH]c(-c4ccc5[nH]c(-c6ccc(OCCCCNC(=O)c7ccc8c(c7)C7(OC8=O)c8ccc(N(C)C)cc8[Si](C)(C)c8cc(N(C)C)ccc87)cc6)nc5c4)nc3c2)CC1", "tested on": "ALB", "assay": "binding, fluorescence titration", "system": "PBS", "setting": "1 h", "measurement": "Kd", "value": "361 ± 87 µM"}
{"SMILES": "O=C(c1ccc(OCCN2CCCCC2)cc1)c1c(-c2ccc(O)cc2)sc2cc(O[C@@H]3O[C@H](C(=O)O)[C@@H](O)[C@H](O)[C@H]3O)ccc12", "tested on": "SLCO2B1", "system": "HEK293 expressing SLCO2B1", "setting": "pH 7.4", "measurement": "intrinsic clearance", "value": "3.21 µL/min/mg protein"}
{"SMILES": "CO[C@@H]1[C@H](OP(=O)(O)OC[C@H]2O[C@@H](n3cnc4c(=O)[nH]c(N)nc43)[C@H](O)[C@@H]2O)[C@@H](COP(=O)(O)OP(=O)([O-])O[P@](O)(=S)OC[C@H]2O[C@@H](n3c[n+](C)c4c(=O)[nH]c(N)nc43)[C@H](O)[C@@H]2O)O[C@H]1n1cnc2c(N)ncnc21", "tested on": "m7GpppN-mRNA hydrolase (DCP2, Homo sapiens, UniProt Q8IU60)", "assay": "substrate", "setting": "short capped RNA", "scale": "relative to: AG-CleanCap RNA", "measurement": "decapping susceptibility", "value": "no effect"}
{"SMILES": "O=c1[nH]c2cccnc2n1-c1ccc2c(c1)OC1(CCCCC1)O2", "tested on": "P-glycoprotein, rat", "measurement": "efflux ratio", "value": 0.8}
{"SMILES": "Cc1ncsc1-c1ccc(C(C)NC(=O)C2CC(O)CN2C(=O)C(NC(=O)CCCCCCCCCCN2CCCC(Nc3ncc(Cl)c(Nc4ccccc4S(=O)(=O)C(C)C)n3)C2)C(C)(C)C)cc1 (stereo not drawn)", "tested on": "22Rv1", "assay": "RNA-seq, measured: SH3PXD2B mRNA", "setting": "concentration not given", "scale": "relative to: DMSO", "measurement": "log2 fold change", "value": -1.72}
{"note": "Excerpt of the above:"}
{"SMILES": "CN1CCN(c2ccc3[nH]c(-c4ccc5[nH]c(-c6ccc(OCCCCNC(=O)c7ccc8c(c7)C7(OC8=O)c8ccc(N(C)C)cc8[Si](C)(C)c8cc(N(C)C)ccc87)cc6)nc5c4)nc3c2)CC1", "tested on": "ALB", "assay": "binding, fluorescence titration", "system": "PBS", "setting": "1 h", "measurement": "Kd", "value": "361 ± 87 µM"}
{"SMILES": "O=C(c1ccc(OCCN2CCCCC2)cc1)c1c(-c2ccc(O)cc2)sc2cc(O[C@@H]3O[C@H](C(=O)O)[C@@H](O)[C@H](O)[C@H]3O)ccc12", "tested on": "SLCO2B1", "system": "HEK293 expressing SLCO2B1", "setting": "pH 7.4", "measurement": "intrinsic clearance", "value": "3.21 µL/min/mg protein"}
